Measured values from different studies.
Protocols differ between the studies behind these lines. Values joined by “and” are separate records of one study, mostly repeats; a detail may differ.
Target: Calcium/calmodulin-dependent protein kinase type IV (CAMK4, Homo sapiens, UniProt Q16566)

test | test system | conditions | how to read | quantity | value | Structure (SMILES)
inhibitor |  | 1 µM | relative to: control | remaining activity | 100% | COc1cc(Nc2nc(C)cc(-c3cnn4nc(OC)ccc34)n2)cc(C(F)(F)F)c1
kinase activity |  | 0.1 µM, together with: ATP at Km |  | inhibition | 6.5% | CCn1cc(C(=O)O)c(=O)c2c(N)c(F)c(NC3CCCCC3)cc21
enzyme activity, inhibitor |  | 10 µM |  | inhibition | -5% | Cc1cccc(O[C@H]2CCC[C@@H](C(C)CNCc3ccncc3)C2)c1 (relative stereo)
probe labelling, inhibitor, KiNativ chemoproteomics | MOLT-4 | 1 µM |  | inhibition | 40.5% | CS(=O)(=O)Nc1cccc(-c2csc3cnc(Nc4ccc(N5CCN(CCCCCOc6cccc7c6C(=O)N(C6CCC(=O)NC6=O)C7=O)CC5)cc4)nc23)c1 (stereo not shown)
kinase activity, inhibitor, ProQinase kinase profiling |  | 25 µM | relative to: control | remaining activity | 108% and 105% | COCC12C(=O)NC3C4(C(OC)CC1O)C1CC5(O)C(OC)C(O)C(OC(C)=O)(C1C5OC(=O)c1ccccc1)C3(O)C(OC)C24 (stereo not shown)
cell-free assay, inhibitor |  | 1 µM |  | inhibition | 0.7% | C=CC(=O)N1Cc2nc(-c3cc(-c4cc(Cl)cnc4Cl)c(F)cc3F)n(-c3ccncn3)c2C1
binding |  | 0.1 µM |  | remaining binding | 94% | Cc1cnc2nc1Nc1cccc(c1)COC/C=C/COCc1cc(ccc1OCCN1CCOCC1)N2
kinase activity |  | 0.1 µM |  | inhibition | 2% and 0% | C=CC(=O)Nc1cccc(-c2cnc3[nH]cc(C(=O)NC(C)(C)C)c3n2)c1
enzyme activity, inhibitor |  | 0.1 µM |  | inhibition | 8% | CN1CCN(Cc2ccc(-c3ccc(CO[C@H]4CCC[C@@H]4NC(=O)c4cc(-c5cnn(C)c5)cnc4N)cc3)cc2)CC1
enzyme activity, inhibitor |  | 10 µM |  | inhibition | 2% | NC(=O)C[C@H]1CCc2sc3ncnc(O[C@H]4CC[C@H](N5CCOCC5)CC4)c3c21
binding, competition with immobilised ligand |  | 3 µM |  | remaining binding | 98% | COc1c(Cl)cccc1Nc1c(-c2ccncc2C#C[C@@]2(C)CCCN2C(=O)/C=C/CN(C)C)[nH]c2c1C(=O)NCC2
kinase activity, KinaseProfiler |  | 0.03 µM, species human | relative to: control | remaining activity | 108% | COc1ccc(NC(=O)Nc2ccc3c(c2)C(=O)N(C(C)CO)CC(C)C(CN(C)Cc2ccc4c(c2)OCO4)O3)cc1 (stereo not shown)
enzyme activity, inhibitor |  | 1 µM |  | inhibition | -4% | CN1CC[C@@H](COc2cnc(C#N)cc2-c2ccn3nc(NC(=O)C4CC4)cc3c2)C1
KINOMEscan |  | 1 µM | relative to: DMSO control | remaining binding | 100% | C=CC(=O)N1CCc2ccc(-n3c(=O)ccc4cnc5ccc(-c6cnn(C)c6)cc5c43)cc21
enzyme activity |  | 100 nM, human enzyme, together with: 10 µM ATP | relative to: untreated | remaining activity | 59% | O=C=[N][Ru-4]123([n]4c5ccc(O)cc5c5c6c(c7cc(F)c[n+]1c7c54)C(=O)NC6=O)[S+]1CC[S+]2CC[S+]3CC1 (stereo not shown)
cell-free assay, competition with immobilised ligand |  | 1 µM |  | remaining binding | 96% | C=CC(=O)N1CCCC(n2c(=O)c3ncccc3n(Cc3ccc(Oc4ccccc4)cc3)c2=O)C1 (stereo not shown)

Excerpt of the above:
test | test system | conditions | how to read | quantity | value | Structure (SMILES)
enzyme activity, inhibitor |  | 0.1 µM |  | inhibition | 8% | CN1CCN(Cc2ccc(-c3ccc(CO[C@H]4CCC[C@@H]4NC(=O)c4cc(-c5cnn(C)c5)cnc4N)cc3)cc2)CC1
enzyme activity, inhibitor |  | 10 µM |  | inhibition | 2% | NC(=O)C[C@H]1CCc2sc3ncnc(O[C@H]4CC[C@H](N5CCOCC5)CC4)c3c21
